Published values of several laboratories.
Each numbered part is a random draw from the data of one study; scales do not carry over between parts. Substitutions count along the parent as printed.

Sample 1
Target: Interferon regulatory factor 5, full length, phosphomimetic (IRF5, Homo sapiens, UniProt Q13568-2, residues 1-514, K96S/S451D/S453D/S456D/S462D)
Method: protein-binding microarray
Molecule type: double-stranded DNA, one strand shown
Matrix: in vitro
Tested at: 250 nM
Notes: 60-bp whole probe
With: salmon DNA 0.4 mg/ml
Baseline: random background probes
Direction: higher = stronger binding
Constant ends, left off below: GCCTAGCAC … GTCTTGATTCGCTTGACGCTGCTG
Oligonucleotide	log fluorescence
GACGATATCAGTATCGAGAAGTGCTAG	3.66 z-score
TTAGGTATCGACTATTGGTTAGTGCTA	3.51 z-score
GTGTTTCTCAAATGTTTTGTTGTGCTA	1.42 z-score
TCTGATTTTGCTTTCATTTAGTGCTAG	4.31 z-score
GACGGTCCCCTTATCCTGACGTGCTAG	-0.162 z-score
ACAGCAAGAGCTCAACGGGGGTGCTAG	0.0236 z-score
TCTCATTTCCAATTACCTTTGTGCTAG	1.67 z-score
GTGTATATGACAATGATGTTGTGCTAG	0.269 z-score
GAGGCTTTTTTTTTTTTTTTGTGCTAG	0.448 z-score
TTAGGAATCGGTATCGGTTAGTGCTAG	6.61 z-score
GACGGACTGGGGTTTCGGGAGGTGCTA	1.07 z-score
GACGGTATCGACACTGGAGACGTGCTA	1.64 z-score
TCATGTCTGTGTCACAGACTGTGCTAG	-0.14 z-score
GTCGGTCTCGGTATCGGGACGTGCTAG	1.63 z-score
TTAGATTTCGGGACGGGATTAGTGCTA	3.01 z-score
TCATGCTTTCCTTTATGACTGTGCTAG	0.896 z-score
GACGGACTGGACCATCGGGACGTGCTA	-0.522 z-score
GACGGACTAGACACTGGGGACGTGCTA	-0.634 z-score

Sample 2
Target: ABI1, truncated, D143A, DHFR fusion (Arabidopsis thaliana)
Method: DHFR PCA, deep sequencing
Matrix: yeast
Notes: methotrexate growth selection, single substitutions
With: (+)-ABA 200 µM
Baseline: wild-type fitted maximum
Direction: higher = stronger binding
Parent: PYL1, truncated, DHFR fusion (Arabidopsis thaliana); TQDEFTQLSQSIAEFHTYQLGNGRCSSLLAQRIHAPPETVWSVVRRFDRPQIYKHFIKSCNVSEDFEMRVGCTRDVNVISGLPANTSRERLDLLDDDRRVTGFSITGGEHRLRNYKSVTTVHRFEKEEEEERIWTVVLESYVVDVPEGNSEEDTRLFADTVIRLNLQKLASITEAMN; partner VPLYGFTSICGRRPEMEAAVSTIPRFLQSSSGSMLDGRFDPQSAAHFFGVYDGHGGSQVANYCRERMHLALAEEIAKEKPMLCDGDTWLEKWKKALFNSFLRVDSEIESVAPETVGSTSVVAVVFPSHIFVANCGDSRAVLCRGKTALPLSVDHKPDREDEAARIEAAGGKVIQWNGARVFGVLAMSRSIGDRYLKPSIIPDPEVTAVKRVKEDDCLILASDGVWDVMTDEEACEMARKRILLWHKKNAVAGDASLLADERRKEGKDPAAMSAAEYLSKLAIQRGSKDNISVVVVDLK
Substitution	relative binding score [%]
T6A	101
M176Y	92
T39W	86.6
V62L	99.3
E127Q	106
E129M	96.9
P36W	70.1
L28T	90.5
K54T	2.25
L20R	98.1
H34I	88.6
R123N	101
K126W	98.8

Sample 3
Target: UBE2Z UBC core domain (UniProt Q9H832)
Chain of UniProt Q9H832 (whole entry, looked up): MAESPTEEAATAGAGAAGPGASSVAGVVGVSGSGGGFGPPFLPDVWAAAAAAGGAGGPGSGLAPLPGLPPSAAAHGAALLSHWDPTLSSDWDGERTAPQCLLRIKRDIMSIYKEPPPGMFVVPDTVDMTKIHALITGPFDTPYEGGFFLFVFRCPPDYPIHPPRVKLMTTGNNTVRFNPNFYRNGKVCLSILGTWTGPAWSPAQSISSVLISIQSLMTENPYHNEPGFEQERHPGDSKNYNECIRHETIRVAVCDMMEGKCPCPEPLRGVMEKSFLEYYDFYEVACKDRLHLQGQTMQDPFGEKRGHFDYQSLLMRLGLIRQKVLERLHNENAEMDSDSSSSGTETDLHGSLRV
Method: yeast two-hybrid
Matrix: yeast
Notes: mostly zero background
Baseline: not given
Direction: higher = stronger interaction
B1: RNF183 RING domain (UniProt Q96D59); chain EQQGRELEAECPVCWNPFNNTFHTPKMLDCCHSFCVECLAHLSLVTPARRRLLCPLCRQPTVLASGQP
B2: TRIM60 RING domain (UniProt Q495X7); chain ALVNLQEESSCPICLEYLKDPVTINCGHNFCRSCLSVSWKDLDDTFPCPVCRFCFPYKSFRR
B3: TRIM37 RING domain (UniProt O94972); chain SVESIAEVFRCFICMEKLRDARLCPHCSKLCCFSCIRRWLTEQRAQCPHCRAPLQLRELVN
B4: RNF152 RING domain (UniProt Q8N8N0); chain ETLSQDSLLECQICFNYYSPRRRPKLLDCKHTCCSVCLQQMRTSQKDVRCPWCRGVTKLPPGFS
B5: ANAPC11 RING domain (UniProt Q9NYG5); chain GICRMAFNGCCPDCKVPGDDCPLVWGQCSHCFHMHCILKWLHAQQVQQHCPMCRQEWKFKE
B6: MYCBP2 RING domain (UniProt O75592); chain TSLKQDADDMCMICFTEALSAAPAIQLDCSHIFHLQCCRRVLENRWLGPRITFGFISCPICKNKINHIVLKD
B7: RNF31 RING domain (UniProt Q96EP0); chain AFLRRLLAQECAVCGWALPHNRMQALTSCECTICPDCFRQHFTIALKEKHITDMVCPACGRPDLTDDTQLL
B8: RNF122 RING domain (UniProt Q9H9V4); chain AKKLQLYGQTCAVCLEDFKGKDELGVLPCQHAFHRKCLVKWLEVRCVCPMCNKPIASPSEAT
Molecule	lacZ reporter activity
B1 (RNF183 RING domain)	0
B2 (TRIM60 RING domain)	0
YCEMGSTFQLCKICAENDKDVKIEPCGHLMCTSCLTAWQESDGQGCPFCRCEIKGTEPII (CBLB RING domain (UniProt Q13191))	0
B3 (TRIM37 RING domain)	0
B4 (RNF152 RING domain)	0
PEELAVNNDDCAICWDSMQAARKLPCGHLFHNSCLRSWLEQDTSCPTCRMSLNIADNNR (AMFR RING domain (UniProt Q9UKV5))	0
B5 (ANAPC11 RING domain)	0
B6 (MYCBP2 RING domain)	0
YPEEVDDDLICHICLQALLDPLDTPCGHTYCTLCLTNFLVEKDFCPMDRKPLVLQHCKK (LNX1 RING domain (UniProt Q8TBB1))	0
B7 (RNF31 RING domain)	0
QVQSRTKIEECVVCSDKKAAVLFQPCGHMCACENCANLMKKCVQCRAVVERRVPFI (MIB1 RING domain (UniProt Q86YT6))	0
AEADPLGRFTCPVCLEVYEKPVQVPCGHVFCSACLQECLKPKKPVCGVCRSALAPGVRAV (RNF114 RING domain (UniProt Q9Y508))	0
B8 (RNF122 RING domain)	0

Sample 4
Target: Hepatocyte nuclear factor 3-alpha (Foxa1, Mus musculus, UniProt P35582, residues 1-468, full length assumed)
Chain of UniProt P35582 (whole entry, looked up): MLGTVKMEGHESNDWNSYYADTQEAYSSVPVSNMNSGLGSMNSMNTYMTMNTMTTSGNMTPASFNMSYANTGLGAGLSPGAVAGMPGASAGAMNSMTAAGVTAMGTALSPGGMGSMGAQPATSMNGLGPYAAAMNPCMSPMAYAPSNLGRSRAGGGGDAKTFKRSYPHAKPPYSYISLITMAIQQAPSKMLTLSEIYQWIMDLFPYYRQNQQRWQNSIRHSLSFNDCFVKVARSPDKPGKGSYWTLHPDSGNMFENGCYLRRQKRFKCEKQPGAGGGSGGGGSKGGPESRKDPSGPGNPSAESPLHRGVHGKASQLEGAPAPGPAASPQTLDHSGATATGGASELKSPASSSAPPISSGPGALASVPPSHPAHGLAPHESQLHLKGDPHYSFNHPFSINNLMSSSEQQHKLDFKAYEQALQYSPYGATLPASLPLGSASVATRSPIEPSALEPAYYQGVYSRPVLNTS
Method: EMSA with sequencing
Molecule type: double-stranded DNA, one strand shown
Matrix: in vitro
Tested at: 10 and 20 nM
Notes: whole designed probe, mean of two concentrations, ends assumed
Baseline: negative control set to 0
Direction: higher = stronger binding
Oligonucleotide	normalised bound fraction [ratio]
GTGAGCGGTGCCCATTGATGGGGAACTTTTTTCTTTTAGTTTTCATTTTTTTTCTGAAAACAGAAACACACAGTAACATGTAATATAAAATTGCTTTTATTATAAATAACCCCTTACAATGTAATCTAATATATTGATATTATAAAACCACTGGTCCTCATTTGTTTTAATATGGCAAAATTAAATAACCTTTCACATTAAAAATATACTCTTTAGTTTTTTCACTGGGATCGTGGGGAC	0.314
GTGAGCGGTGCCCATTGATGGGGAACCATTTTTCTATGAAGTTATAGTCACTTTCACATTTACTGCAAGATGTTTTTCGGATCTCTCCACTGCCGCCTTGTGGCTTTAGAACACAAATCAGATTACTTTGTTTTGTGACATATTTGAATAAAACCATGTATCCTGTTTAGGGCTGGCAATGTGGTAGTGGGAGGGTTGGAAATTGGATACAAAAATTGATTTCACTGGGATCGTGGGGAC	-0.0182
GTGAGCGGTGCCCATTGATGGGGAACTGTGTAAGATTAGCTATCTAAACATGAATAGCATTCTGAAGTGAAGGGAAAAAATTGACTTAAAATTTTAAAAGCATTAATATCATTTCAAAGTAATCTACAGGTCCTTTTAAAACGATTAGAGGATTATTTGTGCATTATTTTATGGGTCAAAATTTAAGCTTTTAAAAGAATAAAGTGATTTTTAAAAGAATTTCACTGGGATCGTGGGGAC	0.0369
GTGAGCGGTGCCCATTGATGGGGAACAGAAGAATAACCAGTGGGGCCAGTCAGGGATGCTTCAGATGTCACAGCAGTACTATGGGCAGCAAGTCTCAATGCAAGGACACTGGTACAATGTAATCTAGCATATTCCATACCACTGTGTCATTTTATATCTGTTAAATGGCAAAAGGCCTGTAGTATCCCTAAAGGAAAGTAAAGCTTAAGGCCACTTTTCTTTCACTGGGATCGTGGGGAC	-0.0684
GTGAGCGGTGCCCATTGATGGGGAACATCTTCCCCCTCTTCCTTGCCCCACCAGCTCACCTACGGGGGTTATTTGCACAAAGGAAAATAAATAAAGCCGGCATTCGTTAACGCAGTTCTGGCGCAAACTGCTGTTTGCTCTGGATCTAACATGGTCCTTTGGCGACGCCAGGCTCCGGGAGAGCAAAGCACCGTGTCAGGGCCATGATCCGGGGTGGCCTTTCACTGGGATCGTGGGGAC	0.384
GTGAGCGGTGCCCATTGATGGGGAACAAAAAAGAAATACATTGAGTCTACTGACAAGATATCCACAACATGTTAAAAAGCCAAGTAGCAAAATATAGTATGCAATCTAATACTACGTAATGTAATCTTGCAGATGGTACCTATTTAAGTGTATTTATCTTTCCAAACACACCACATATGTTTATACATGTGTGTGAAAGGGTATACATACACTCAACAGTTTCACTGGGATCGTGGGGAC	0.249
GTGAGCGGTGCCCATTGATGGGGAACATCTTCCCCCTCTTCCTTGCCCCACCAGCTCACCTACGGGGGTTATTTGCACAAAGGAAAATAAATAAAGCCGGCATTCGTTAACGCAGTTCTGGCGCAAACTGCTGTTTGCTCTGCATGAATCATGGTCCTTACGCGACGCCAGGCTCCGGGAGAGCAAAGCACCGTGTCAGGCGCATGATCCGGGCTCGCCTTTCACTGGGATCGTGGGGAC	0.389
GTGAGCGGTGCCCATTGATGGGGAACGCGGGCGCGTCGTCGGCGAACTTCCTGGTCCTCTGCATCCGCCCCCGTGACGCACGCGGGCCGCCGGGGACTGGCCGCCCGCGTGCCCGCACTGTTGACTTTGCCATCCTCGGAGATGGGCGGGCCCTGTTTTTGTAGGGTCGGCGCTGTTGAATCAGAAGCAGGCAGGGGCGGAGGTGGCTGGGGAGGCACCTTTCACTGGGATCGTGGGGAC	0.235
